Results gathered from unrelated publications.
Numbered parts are unrelated; each lists some results of a single study.

Block 1
Target: Ras GTPase-activating protein-binding protein 1, full length (G3BP1, Homo sapiens, UniProt Q13283)
Sequence of UniProt Q13283 (whole entry, looked up): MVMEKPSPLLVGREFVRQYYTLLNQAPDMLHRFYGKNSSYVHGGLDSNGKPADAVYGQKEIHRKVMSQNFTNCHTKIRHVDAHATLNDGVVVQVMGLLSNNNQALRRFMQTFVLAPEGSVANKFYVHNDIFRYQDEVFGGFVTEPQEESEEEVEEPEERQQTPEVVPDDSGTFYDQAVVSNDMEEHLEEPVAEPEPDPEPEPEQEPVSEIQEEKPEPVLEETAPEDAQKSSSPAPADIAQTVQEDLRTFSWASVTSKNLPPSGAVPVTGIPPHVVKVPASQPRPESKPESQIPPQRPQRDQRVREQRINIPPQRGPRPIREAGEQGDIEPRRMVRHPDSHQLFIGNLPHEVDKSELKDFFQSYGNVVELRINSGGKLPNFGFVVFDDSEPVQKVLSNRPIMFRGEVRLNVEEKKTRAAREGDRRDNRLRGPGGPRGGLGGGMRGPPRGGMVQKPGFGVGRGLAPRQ
Technique: RNA Bind-n-Seq
Form: RNA
Medium: in vitro
Tested at: 200 nM
Notes: whole 134-nt RNA, ends assumed
With: 150 mM LiCl
Reference: input library
Reading: higher = stronger binding
Each molecule: 7-deaza-guanosine replaces G
Shared flanks, not repeated: GGGAGUUCUACAGUCCGACGAUC … UGGAAUUCUCGGGUGUCAAGG
| Oligonucleotide | log2 enrichment |
| --- | --- |
| AGUCCUGUGCUACACAUCGUAUGUACCGAAUCGGAAAAAAAGGAAAGGAAAAAAAGGAAAGUAUUAUGUUACGCCGUUCGGAUCUGCACU | -1.17 |
| CACAGACAACACGCACCCACACAGACACAGAGGGAAGGGGUUGGGAUGGGGACAGGGUGCACGGCAGGGCGGGGUAGGACCCCAGCCCCU | -0.293 |
| GUUGUAGACACUCCUGGGAUCCUGGACCACCCUCUGGAGGAUAGGAACACCAUCGAGAUGCAGGCCAUCACUGCCCUGGCCCACCUCCGU | 0.743 |
| UAACUUUAGAGGAGGAUCUGAUGGAUAUGGCAGUGGACGUGGAUUUGGGGAUGGCUAUAAUGGGUAUGGGGGAGGACCUGGAGGUGGCAA | -0.112 |
| UGGUAAGAAAUCUGCUUGUUUUAUUAAAAUGCUUAAUUGAAGAAAAUAAUAUUCUUCUGUGAUUAAAAUUAGGAAGAAAUAGAACCAUUU | -1.82 |
| GUCCUGUGCUACACAUCGUAUGUACCGAAUCGGGGCCCCCGGGCCCCCGGCCCCCGGGAAAGUAUUAUGUUACGCCGUUCGGAUCUGCAC | -1.71 |
| UCCCUGAAUCACCGACUGGAGGAGAGUUACCUACAAGAGCCUUCAUCCAGGAGCAUCCACACUGCAAUGAUAUAGGAAUGAGGUCUGAAC | -0.717 |
| UGGCCCUGGUGGCAUGCGGGGAGGAAGAGGUGGCCUCAUGGAUCGUGGUGGUCCCGGUGGAAUGUUCAGAGGUGGCCGUGUUGGAGACAG | -0.451 |
| AAGUCCUGUGCUACACAUCGUAUGUACCGAAUCGGGAAAAGGAAAAGGGAAAAGGGAAAGUAUUAUGUUACGCCGUUCGGAUCUGCACUU | -0.161 |
| UGGGAGGUGGAUUUUGUUUAUUUUUUUAGCUCAUUUCCAGGGGUGGGAAUUUGUUUUUAAUAUGUGUCAUGAAUAAAGUUGUUUUUGAAA | -0.618 |
| UGUCUCGAGCAGGGGACAAGACGUUCGAGGAGUACCUGGAUGAGUAUUACCGGCUGGACUACGAGGACAUCAUCGACGACCUGCCCUGUC | -0.388 |

Block 2
Target: Histone acetyltransferase KAT6A, winged helix 1, GST fusion (KAT6A, Homo sapiens, UniProt Q92794, residues 1-85)
Technique: protein binding microarray
Form: double-stranded DNA, one strand shown
Medium: in vitro
Tested at: not given
Notes: 8-mer, flanks averaged, mean of 2 arrays, mostly near background
Reference: not given
Reading: higher = stronger binding
Target sequence (chain): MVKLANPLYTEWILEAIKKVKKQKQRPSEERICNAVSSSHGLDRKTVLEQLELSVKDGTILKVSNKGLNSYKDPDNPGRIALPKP
| Oligonucleotide | E-score |
| --- | --- |
| ATTGGCCA | -0.0651 |
| AACTCTCC | -0.117 |
| AAGCCTTA | -0.0115 |
| TAGTATCA | -0.11 |
| AGGGGTTG | -0.156 |
| AGATAAAT | -0.264 |
| ACGGGGGG | 0.238 |
| AAGCAAAC | -0.139 |
| ATTCAAAA | -0.0601 |
| AGCTAGGG | -0.156 |
| ACCTGAAA | -0.132 |
| CCTAGAAG | 0.0339 |
| AGTAATGC | 0.0868 |
| CAGGTGCG | 0.102 |
| ACAATCCG | 0.125 |
| AGGACAAG | -0.139 |
| CGGTATGC | 0.246 |

Block 3
Target: RNA binding protein fox-1 homolog 2, RRM domain, GST-SBP tag (RBFOX2, Homo sapiens, UniProt O43251-10, residues 100-194)
Technique: RNA Bind-n-Seq
Form: RNA
Medium: in vitro
Tested at: 365 nM
Notes: natural RNA segment, single round, ends assumed
Reference: no-protein control
Reading: higher = stronger binding
Shared flanks, not repeated: GGGAGUUCUACAGUCCGACGAUC … UGGAAUUCUCGGGUGCCAA
Residues (chain): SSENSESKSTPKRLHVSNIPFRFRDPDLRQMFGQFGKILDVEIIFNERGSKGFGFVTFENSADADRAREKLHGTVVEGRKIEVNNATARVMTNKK
| Oligonucleotide | RBNS enrichment (R) |
| --- | --- |
| UUACACGUUUGUUAGCACUAGUUCUGAAUUUGUGUAGGUCUCAACCUUUCAGGACAUCUGGGUCUAAUACAGAAGAAUUAAUAAACUGGAUGAUUACUACAGCAAAAGCA | 2.42 |
| GGUACCUCCCUCCCUGAAUUCCUGAGCCAGCAACUCUUACUGGCCCCUCCAUAGGGUCUUGCUGCCAGGGACAGGGAUGCUUUCCAGCCUGCAGCAACAGAACACUUGAC | 0.329 |
| CAGCCCAGGCUCAGUUCUUGGGACCCACAUGGUAGAAGGAGUGUACCGACAUUCCCCCAAGUUGUCCUCUAACCUCCACAUGUGUGCUGUGGUAUGUGUGUUCUCACGUG | 5.21 |
| UCUGUACACGUUCUUAAGCAGCGUGUCAGGAGAGCACCCUGUUGUCUUCUGGUAAAUGUGUGCAGGGUCAUCCUGUCUCCUGUACCUCCUGGGAAAGGGGCCGCUGCUGU | 0.219 |
| AAAUCACAAACCCAUAGAAAAGUAAGUAGGCUAAGUUGGGGAGGCUCAAACCAUUAAGGGUUAAAAAUACAUCUUAAACAUUGGAAAGCUCUUCUAGCUGAAUCUGAAAU | 0.487 |
| AUAGUUUGUGAAAUGAUGAGGGCAUUUUAUCUGCUUGCUGUGACCAGCGUGUGUACACAUAAACCUUAACAAGACUACAAGUAUAUUCCAGAAGGAAAUCAUUUUAGUUA | 0.889 |
| UGGAGACAGCCUGAAAAGCAAAGGCCUCAUCUCCAUGGCACAGGGGAGAAGCGCAUCUACCGGGUGCCUGUUUUCACAGCGCCCUUCUGCCAGGCCCUGCUGGAAGAGCU | 0.686 |
| AAAUCCACUUCUGGGACAGGCAGUACUGUCUGCAGCGAUACCCCCAAUAAACGGAACUUUUUAACCCCUCUGUGCCACUGUGCCUGGCCUUUCCCUCCUCUAAGUGGCUC | 0.458 |
| GCUGGGAGCCCUUGUGUGUCUGGUCACACUUUUUAGGCGUCACGCCAAAGGCCAGCCUCCUGGCCCCAAUACCCAUUUUGGAAGCCCCUGUGGCCGUGUGGAUGUCGGUA | 0.319 |
| UGGAGGUACUUCUCGCCAUCAGCUUCCUUCUUUACAAAACCAUCAUUUCAACAUGAAAAUUAUGUCAGUUUAUAGAAAUAUUUAUUGUUCAAGGUCUGUAAUUGUAUUUC | 0.421 |
| UGUGCUGAGACAGUUGAUGUGAUGCAAACUAUUCUUGGAGUGUGUUGUUUUCUUUGGCCCAAGGGUAAACUAAAAUACCUGUGAACUGCAAACUUGCUUGUGAUUGACUU | 2.97 |
| AGACACUCCCGCUGUAUGUGGUGAGCUUGGCUGGAAACUUGCCAUAGCCAGGACUGAGGGGCUGGCCCCAGGACGCUCUCAAGAAAUGGGGCUACUGUGGUUUAGACACU | 0.904 |

Block 4
Target: RING finger protein unkempt homolog, zinc fingers 1-6, GST-SBP tag (UNK, Homo sapiens, UniProt Q9C0B0, residues 30-357)
Technique: RNA Bind-n-Seq
Form: RNA
Medium: in vitro
Tested at: not given
Notes: RNA with constant flanks, human and mouse sites, ends assumed
Reference: input RNA pool
Reading: higher = stronger binding
Shared flanks, not repeated: GGGAGUUCUACAGUCCGACGAUC … CAACAGAGGAUUGAGCAUCA
Residues (chain): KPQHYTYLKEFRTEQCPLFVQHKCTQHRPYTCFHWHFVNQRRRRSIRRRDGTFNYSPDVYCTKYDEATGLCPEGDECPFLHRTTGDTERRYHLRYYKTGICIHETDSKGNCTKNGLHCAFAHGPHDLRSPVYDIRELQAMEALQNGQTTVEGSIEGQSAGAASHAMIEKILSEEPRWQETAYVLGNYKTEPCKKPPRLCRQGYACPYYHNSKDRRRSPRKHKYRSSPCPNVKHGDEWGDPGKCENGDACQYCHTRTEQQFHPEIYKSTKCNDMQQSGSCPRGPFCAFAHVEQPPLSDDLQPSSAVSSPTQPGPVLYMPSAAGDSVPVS
| Oligonucleotide | bound/input enrichment [ratio] |
| --- | --- |
| AUUAAGCAGAGGACUAAGUUGGAGCUUAAAGCCAAGGAUUUACAAGAUGAACUAGCAGGCAAUAGUGAACAAAGGAAACGUUUAUUAAAAGAGAGGCAGAAGCUGCUUGAAAAAAUAGAA | 1.07 |
| CAGAUCAGUAAGCAAGGCCUUUCUGGGGCAGUGGUAGACCUAACCAGAUCAUCUGAACAUAUCCAGUUUUCAGUGGAAGAGCUUAAAAACUUGUUCACACUACAUGAAAGUUCACAUUGU | 0.0849 |
| UUGUUACUGGUUUUCUUUUUUUUUAAUGCUUCUGUUUUUAUCUCGCAAGUUGAUAUUGUACUUAGAUCUUAGCCAAAAACUUUUAUCUCUGAGAAAAAGUUUAAUAAAAAUGUACUAAAC | 1.75 |
| AGCGGCUGUACCAAGUGGUGGCGCUUUGCCGAGUUUCAGUACCUGCAGCCGGGACCCCCCCGGCGGCUUCAGACAGUGGUGGUGUACCUGCCGGAUGUCUGGACCAUCAUGCCUACUUUG | 0.148 |
| UGCAUUCGCAAAGCAAAGAUCUCUGCUGUUGCUUUCCGGAAAGCUUUCUGCCACCACAAGUUAGUGGAACUUGAUGCCACAGGUGUGAAUGCUGAUAUCACGAUUACAGACAUUAUCAGU | 0.132 |
| UCUCUGAAGUUGAGAAUUAACAAUGGUAAAACUGUAUUUUUCCUUUGACCCCACUCUCUCCCGUAUAUACAUUUUUUUUUCUCUCUCUCUCAAAUUCUUAAGUAUGGGCUUGCCCGUCAU | 2.02 |
| UUCUUUAUGUUUGUAGUCUUGAUGUGCUCCUGUGGUAUUACUUCCCCUCUGAUAGGACAUUGUAGCCAGCCUCAGCACUCAGUGAGUUCAUCAGGGCCACACCCAGUAGAGAAGGCCAAG | 0.89 |
| AAGGACUCAGGCAGUGAUCUCUCUCACCGUCCCAAGCGACGUCGAUUUCACGAAAGCUACAAUUUCAACAUGAAGUGUCCUACGCCGGGCUGCAACUCUCUAGGACAUCUUACAGGAAAG | 0.957 |
| GGGGAGGGGAUGGAGGAUAACCUCAUGAAAGGUGCCGUUUUCGGGUGAAACUUGACAUUUCUUUUAUACUUUACUCUUUUGAGAAGGAUUCUUUUUUUUUUUUUUUUUUUUUUUGAGUUG | 2.17 |
| CAAAUUCUUCCUUCUUUUCUUGGCUUACUCUCUGCUGUACUGCCUUUUCAUUGCUGCUACCGAUUUACAGUAUUUUAUCAGAUUUUGGACAAAUGGUCUGCCUGAUACUCAAGCCAAGUU | 0.604 |
| UGUCAGGUGGCUUAUUUGUGGAUGCCAUGAUUGAUGAUGUUCAUUUUAAGCUCUUACCUAUAGUACAAGUACAUGAUGCUACUGAAUAUUUUUCCACUUGGAAACUGUGAGCUGGUUGUU | 0.399 |

Block 5
Target: Protein C-ets-1 (ETS1, Homo sapiens, UniProt P14921, residues 1-441, K379A, full length assumed)
Technique: protein-binding microarray
Form: double-stranded DNA, one strand shown
Medium: in vitro
Tested at: not given
Notes: k-mer, scored over probes, only values ≥0.25
Reading: higher = stronger binding
Target sequence (chain): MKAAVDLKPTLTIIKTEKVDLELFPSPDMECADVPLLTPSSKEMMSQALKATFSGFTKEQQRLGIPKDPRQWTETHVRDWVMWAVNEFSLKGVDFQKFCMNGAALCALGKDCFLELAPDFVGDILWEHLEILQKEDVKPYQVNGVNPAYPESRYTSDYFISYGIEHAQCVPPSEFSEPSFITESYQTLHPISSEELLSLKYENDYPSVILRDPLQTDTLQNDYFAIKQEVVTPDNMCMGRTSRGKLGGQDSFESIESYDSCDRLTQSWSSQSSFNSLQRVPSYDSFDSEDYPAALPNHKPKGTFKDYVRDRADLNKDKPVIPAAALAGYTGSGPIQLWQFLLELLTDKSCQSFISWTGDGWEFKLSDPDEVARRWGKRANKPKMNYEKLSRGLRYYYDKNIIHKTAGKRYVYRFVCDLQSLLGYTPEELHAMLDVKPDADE
| Oligonucleotide | E-score |
| --- | --- |
| CTCCCGCC | 0.272 |
| ACCTAACC | 0.26 |
| CCGGGGTC | 0.297 |
| TCTGTACA | 0.256 |
| TGCCGGAA | 0.359 |
| ACCGGTAC | 0.452 |
| CCGGCACA | 0.25 |
| CCACCGAC | 0.324 |
| CCCGTCAA | 0.274 |
| GCCCGCCC | 0.312 |
| CACCGCCG | 0.337 |
| ACGGATAT | 0.292 |
| AACTAATA | 0.297 |
| CGGTAGAC | 0.262 |
| CCGACGGC | 0.325 |
| CCGGGCAA | 0.279 |
| CCATACCG | 0.292 |

Other studies, line by line
Form: peptide
Reading: direction not given
| Molecule | target | assay | test system | setting | measurement | result |
| --- | --- | --- | --- | --- | --- | --- |
| REASKSRVQLFKDDPM | human cyclin F-Cln2 fusion | yeast growth, competitive growth deep sequencing | Saccharomyces cerevisiae | peptide tiling library | enrichment score | 0.0583 |
| GSAKRRLFGEDPP | human cyclin F | cyclin docking binding, deep mutational scanning | yeast cyclin F-Cln2 system |  | Cln2-subtracted enrichment score | 5.12 |
| GAPLKKLFTSTGL | human cyclin A2 | peptide binding, competitive growth sequencing | Saccharomyces cerevisiae, cyclin A2-Cln2 fusion strain | mutational scanning library 1 | enrichment score | -0.672 |
